Assay results of several laboratories.
Lines come from different studies, so protocols differ. Numbers after ± are the reported error.
UniProt Q9HC35, sequence (whole entry, looked up): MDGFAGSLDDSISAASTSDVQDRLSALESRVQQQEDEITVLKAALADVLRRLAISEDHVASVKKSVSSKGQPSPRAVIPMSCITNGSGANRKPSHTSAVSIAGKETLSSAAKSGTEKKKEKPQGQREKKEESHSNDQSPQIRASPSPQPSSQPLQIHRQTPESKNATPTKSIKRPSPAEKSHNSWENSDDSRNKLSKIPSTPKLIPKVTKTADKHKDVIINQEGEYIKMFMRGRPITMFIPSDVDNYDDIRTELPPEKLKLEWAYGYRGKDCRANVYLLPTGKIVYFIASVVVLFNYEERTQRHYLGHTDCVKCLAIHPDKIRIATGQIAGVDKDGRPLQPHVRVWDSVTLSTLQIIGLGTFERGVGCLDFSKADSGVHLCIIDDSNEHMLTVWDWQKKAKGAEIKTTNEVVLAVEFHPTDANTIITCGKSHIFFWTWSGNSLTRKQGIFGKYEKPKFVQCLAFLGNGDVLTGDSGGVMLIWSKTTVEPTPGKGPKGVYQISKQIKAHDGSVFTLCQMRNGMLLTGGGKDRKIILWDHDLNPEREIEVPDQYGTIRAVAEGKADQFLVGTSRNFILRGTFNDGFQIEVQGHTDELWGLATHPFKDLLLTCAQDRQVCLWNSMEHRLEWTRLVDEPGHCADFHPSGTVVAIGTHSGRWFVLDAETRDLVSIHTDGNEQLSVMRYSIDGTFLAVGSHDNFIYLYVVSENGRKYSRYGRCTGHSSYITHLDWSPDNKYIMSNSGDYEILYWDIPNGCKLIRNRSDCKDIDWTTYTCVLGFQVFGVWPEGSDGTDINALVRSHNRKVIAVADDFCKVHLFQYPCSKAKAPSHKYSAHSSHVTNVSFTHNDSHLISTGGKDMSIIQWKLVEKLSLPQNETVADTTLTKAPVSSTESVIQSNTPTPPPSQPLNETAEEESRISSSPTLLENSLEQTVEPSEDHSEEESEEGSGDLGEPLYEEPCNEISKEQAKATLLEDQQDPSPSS
UniProt Q9Y570, sequence (whole entry, looked up): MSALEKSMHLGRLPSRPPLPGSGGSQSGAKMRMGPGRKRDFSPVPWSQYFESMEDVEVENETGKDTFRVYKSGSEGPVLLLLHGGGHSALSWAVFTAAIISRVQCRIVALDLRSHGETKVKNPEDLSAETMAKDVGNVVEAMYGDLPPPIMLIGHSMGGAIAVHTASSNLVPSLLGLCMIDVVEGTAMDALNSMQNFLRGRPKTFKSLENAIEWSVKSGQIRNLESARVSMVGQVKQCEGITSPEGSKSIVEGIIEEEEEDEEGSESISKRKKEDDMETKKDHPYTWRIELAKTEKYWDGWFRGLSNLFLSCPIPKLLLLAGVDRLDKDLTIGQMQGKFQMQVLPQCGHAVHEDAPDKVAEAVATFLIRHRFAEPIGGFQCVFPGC

Cc1cc(C)c(CNC(=O)c2cc(Cl)c3c(c2C)O[C@@](C)([C@H]2CC[C@H](N(C)C)CC2)O3)c(=O)[nH]1  incidence of INR increased (relapsed/refractory NHL patients; dose not given, trial, safety set, all TEAEs grade 5): 0%
O=C(Nc1ccccc1)C1CCN(C(=O)Oc2cccnc2)CC1  adverse event Fatigue (healthy women; oral, 20 mg, 7 days): 42.9%
O=C1c2c(O)c(=O)ccn2N([C@@H]2c3ccccc3SCc3c2ccc(F)c3F)[C@@H]2COCCN12  Cmax (BALB/c mouse; subcutaneous, 8 mg/kg q24h): 299 ng/mL
O=C(c1ccc(Cl)cc1)N1CCN2C(=O)N(OC(=O)N3CCOc4ccccc43)C(=O)C2C1 (stereo not drawn)  median ratio (Protein phosphatase methylesterase 1 (Homo sapiens, UniProt Q9Y570); enzyme activity, inhibitor, MS-based ABPP; SW-620 in situ; 10 µM, 2 h, 37 °C; reference: compound over DMSO, lower = stronger inhibition): 1.05
C[C@@H](O)[C@@H](CO)NC(=O)[C@@H](CCCNC(=N)N)NC(=O)[C@@H]1CCCN1C(=O)[C@@H]1CSSC[C@H](NC(=O)[C@H](Cc2ccccc2)NC(=O)CN2CCN(CC(=O)O)CCN(CC(=O)O)CCN(CC(=O)O)CC2)C(=O)N[C@@H](Cc2ccc(O)cc2)C(=O)N[C@@H](Cc2ccccc2)C(=O)N[C@@H](CCC(N)=O)C(=O)N[C@@H](CC(N)=O)C(=O)N1 [gallium-68 labelled]  tissue uptake (healthy Wistar rat, brain; intravenous, 8 MBq, 60 min, individual animals): 0.05 %ID/g
C[C@]1(O)C[C@@](N)(c2ccc(-c3nc4n(c3-c3ccccc3)COc3ccncc3-4)cc2)C1  patients with Stomatitis TEAE (human, advanced or metastatic solid tumours; intermittent, dose escalation total, any grade): 42.9%
COc1cc2c(Oc3ccc4[nH]c(C)cc4c3F)ccnc2cc1OCC1(N)CC1  grade 1 or 2 Diarrhoea (paediatric recurrent refractory sarcoma; 8 mg/kg): 33.3%
CC[C@H](C)[C@H](NC(=O)[C@H](Cc1ccccc1)NC(=O)[C@H](CCC(=O)O)NC(=O)[C@H](CCCNC(=N)N)NC(=O)[C@H](C)NC(=O)[C@H](C)NC(=O)[C@H](CCC(N)=O)NC(=O)[C@H](CCC(=O)O)NC(=O)[C@H](CCC(=O)O)NC(=O)[C@H](CC(C)C)NC(=O)[C@H](Cc1ccc(O)cc1)NC(=O)[C@H](CO)NC(=O)[C@H](CO)NC(=O)[C@@H](NC(=O)[C@H](CC(=O)O)NC(=O)[C@H](CO)NC(=O)[C@@H](NC(=O)[C@H](Cc1ccccc1)NC(=O)[C@@H](NC(=O)CNC(=O)[C@H](CCC(=O)O)NC(=O)[C@H](C)NC(=O)CCc1c[nH]cn1)[C@@H](C)O)[C@@H](C)O)C(C)C)C(=O)N[C@@H](C)C(=O)N[C@@H](Cc1c[nH]c2ccccc12)C(=O)N[C@@H](CC(C)C)C(=O)N[C@H](C(=O)N[C@@H](CCCNC(=N)N)C(=O)NCC(=O)N[C@@H](CCCNC(=N)N)C(=O)N[C@@H](CCCCNC(=O)COCCOCCNC(=O)COCCOCCNC(=O)CC[C@H](NC(=O)CCCCCCCCCCCCCCCCC(=O)O)C(=O)O)C(=O)NCC(=O)NCC(=O)N[C@@H](CO)C(=O)N[C@@H](CCCCNc1c(NCCCCCN(O)C(=O)CCC(=O)NCCCCCN(O)C(=O)CCC(=O)NCCCCCN(O)C(C)=O)c(=O)c1=O)C(=O)O)C(C)C [zirconium-89 labelled]  tissue uptake (ex vivo gamma counting; rat, kidney; subcutaneous, 3 nmol/kg, 72 h, together with: [89Zr]-labelled peptide): 6.57 %ID/g
CC(C)[C@@H]1NC(=O)CNC(=O)[C@H](CC(N)=O)NC(=O)[C@H](CCCNC(=N)N)NC(=O)[C@H](Cc2ccc(O)cc2)NC(=O)[C@H](C(C)C)NC(=O)[C@@H](NC(=O)[C@@H](NC(=O)[C@H](CC(N)=O)NC(=O)[C@H](Cc2c[nH]c3ccccc23)NC(=O)[C@H](C)NC(=O)[C@H](Cc2ccccc2)NC(=O)CN)C(C)C)CSSC[C@@H](C(=O)N[C@@H](Cc2cnc[nH]2)C(=O)N[C@@H](CCCNC(=N)N)C(=O)N[C@@H](CCCNC(=N)N)C(=O)N[C@@H](C)C(=O)N[C@@H](CC(N)=O)C(N)=O)NC(=O)[C@H](C(C)C)NC(=O)[C@H](CCCNC(=N)N)NC1=O  lymphocytes (ICR mice, blood; intraperitoneal, 10 mg/kg, day 5): 75 ± 1.2%
Cn1ncc(-c2nc(N[C@H]3CC[C@H](N)CC3)ncc2Cl)c1CC1CC1  AUC (HPLC-MS/MS; patients, plasma; oral, 8 mg, day 5): 937 ng·h/mL
CC(C)CC(=O)OC[C@H]1O[C@@](C#N)(c2ccc3c(N)ncnn23)[C@H](O)[C@@H]1O  recovery (ABCB1 (Homo sapiens, UniProt P08183); basolateral to apical transport; Caco-2; 0.9 µM, 2 h, together with: verapamil 100 µM): 80%
CC[C@H](C)[C@@H]1NC(=O)[C@@H]2CCCN2C(=O)[C@H](CC(C)C)NC(=O)[C@H](CC(C)C)NC(=O)CNC(=O)[C@@H](NC(=O)[C@@H](NC(=O)[C@H](CC(=O)O)NC(=O)CNC(=O)[C@@H](NC(=O)[C@H](C)NC(=O)CNC(=O)[C@H](CCCCN)NC(=O)[C@H](CC(C)C)NC(=O)[C@H](CC(C)C)NC(=O)[C@H](CCCCN)NC(=O)CNC(=O)[C@@H](NC(=O)[C@@H](N)CC(C)C)C(C)C)C(C)C)C(C)C)CSSC[C@@H](C(=O)O)NC1=O  log2 fold change (RNA-seq, item: Crybg1; mouse, traumatic brain injury model, frontal cortex and hippocampus; dose not given; reference: TBI alone): -1.07
O=C(O)CCCOc1ccc(F)cc1-c1cc(-c2ccccc2C(F)(F)F)n(-c2ccccc2)n1  relative pituitary weight (Crl:CD(SD) rat, female; intravenous, 25 µg/kg, 1 days post-dose; reference: body weight): 7.4 ± 0.8 mg%
CO[C@H]1C[C@@H]2CC[C@@H](C)[C@@](O)(O2)C(=O)C(=O)N2CCCC[C@H]2C(=O)O[C@H]([C@H](C)C[C@@H]2CC[C@@H](OC(=O)NCCOCCOCCOCCOCCOCCOCCOCCOCCC(=O)N3CCc4cc(Cn5nc(-c6ccc7oc(N)nc7c6)c6c(N)ncnc65)ccc4C3)[C@H](OC)C2)C[C@@H](O)[C@H](C)/C=C(\C)[C@@H](O)[C@@H](OC)C(=O)[C@H](C)C[C@H](C)/C=C/C=C/C=C/1C  maculopapular rash incidence (patients with advanced solid tumours; intravenous, 16 mg weekly, grade 3 or higher): 0%
CCN1CCN(Cc2ccc(Nc3ncc(F)c(-c4cc(F)c5nc6n(c5c4)[C@H](C)CCC6)n3)nc2)CC1  AST increased grade ≥3 (patients with advanced solid tumours; dose not given, phase Ia monotherapy): 4.2%
C[C@H]1CN(c2n[nH]c3nc(N[C@H]4CC[C@H](NS(=O)(=O)CCC(F)(F)F)CC4)ncc23)CCO1  remaining binding (Echinoderm microtubule-associated protein-like 4 (Homo sapiens, UniProt Q9HC35); Kinobeads competition, item: EML4; 0.8 µM, unit not given; reference: vehicle): 1.04
C[C@@H](NC(=O)N1C(=O)[C@H](Cc2ccnc(N)c2)[C@H]1C(=O)O)C1CCCCC1  incidence of mild AEs (healthy adult Chinese volunteers; continuous intravenous infusion, 0.6 mg/kg/h, 5-day infusion, CTCAE 5.0 grading): 87.5%
C[C@]1(CO)Cc2ncn(-c3ccc(C#N)c(Cl)c3)c2C(=O)O1  tmax (human, plasma; 10 mg, first dose fasted): 30 min
CC[C@H](C)CCCCC(=O)N[C@@H](CCN)C(=O)N[C@H](C(=O)N[C@@H](CCN)C(=O)N[C@H]1CCNC(=O)[C@H]([C@@H](C)O)NC(=O)[C@H](CCN)NC(=O)[C@H](CCN)NC(=O)[C@H](CC(C)C)NC(=O)[C@@H](Cc2ccccc2)NC(=O)[C@H](CCN)NC1=O)[C@@H](C)O  fAUC(0-24) steady state (human, critically ill, no AKI, plasma; dose not given, mean): 49600 ng·h/mL
CC(C)(O)c1cc(Nc2cc(Oc3cn(C4CC4)nc3C3CCOCC3)ccn2)ccn1  treatment-emergent adverse events (Constipation; advanced cancer patients, dose escalation; oral, dose not given, 2 weeks on/off, all causality grade ≥3): 3%
CCCCCOc1ccc(-c2ccc(-c3ccc(C(=O)N[C@H]4C[C@@H](O)[C@@H](OCC[N+](C)(C)C)NC(=O)[C@@H]5[C@@H](O)[C@@H](C)CN5C(=O)[C@H]([C@@H](C)O)NC(=O)[C@H]([C@H](O)[C@@H](O)c5ccc(O)cc5)NC(=O)[C@@H]5C[C@@H](O)CN5C(=O)[C@H]([C@@H](C)O)NC4=O)cc3)cc2)cc1  Cmin (adult patients in ICU, plasma; intravenous, 400 mg loading dose, after first dose, geometric mean): 1940 ng/mL

For quick reference, copied from above:
C[C@H]1CN(c2n[nH]c3nc(N[C@H]4CC[C@H](NS(=O)(=O)CCC(F)(F)F)CC4)ncc23)CCO1  remaining binding (Echinoderm microtubule-associated protein-like 4 (Homo sapiens, UniProt Q9HC35); Kinobeads competition, item: EML4; 0.8 µM, unit not given; reference: vehicle): 1.04
